Measured values of several laboratories.
Lines come from different studies, so protocols differ. “And” joins repeats or separate records; there may be more than shown. ± gives the spread as reported.
Sequence of UniProt P27361 (whole entry, looked up): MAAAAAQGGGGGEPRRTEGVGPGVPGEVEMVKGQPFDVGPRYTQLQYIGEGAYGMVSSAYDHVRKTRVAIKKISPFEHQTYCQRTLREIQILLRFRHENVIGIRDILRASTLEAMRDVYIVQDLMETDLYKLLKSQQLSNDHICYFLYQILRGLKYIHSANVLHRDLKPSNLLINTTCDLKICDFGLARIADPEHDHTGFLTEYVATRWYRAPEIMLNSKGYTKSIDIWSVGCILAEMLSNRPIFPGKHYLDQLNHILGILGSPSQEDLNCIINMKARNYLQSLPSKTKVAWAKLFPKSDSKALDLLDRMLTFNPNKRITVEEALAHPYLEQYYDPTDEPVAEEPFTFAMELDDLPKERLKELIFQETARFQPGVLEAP
Sequence of UniProt A5GZW8 (whole entry, looked up): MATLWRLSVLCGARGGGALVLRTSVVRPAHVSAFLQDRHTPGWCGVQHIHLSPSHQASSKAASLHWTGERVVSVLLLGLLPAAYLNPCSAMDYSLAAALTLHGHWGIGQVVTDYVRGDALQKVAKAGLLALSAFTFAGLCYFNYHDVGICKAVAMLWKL
Sequence of UniProt Q007T0 (whole entry, looked up): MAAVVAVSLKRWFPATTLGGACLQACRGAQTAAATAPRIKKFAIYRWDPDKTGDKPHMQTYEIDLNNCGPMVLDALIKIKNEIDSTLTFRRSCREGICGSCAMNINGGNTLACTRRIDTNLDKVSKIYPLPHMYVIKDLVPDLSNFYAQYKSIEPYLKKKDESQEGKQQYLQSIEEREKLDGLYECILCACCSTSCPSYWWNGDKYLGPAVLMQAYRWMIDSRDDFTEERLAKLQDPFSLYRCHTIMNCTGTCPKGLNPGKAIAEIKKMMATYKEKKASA
Sequence of UniProt D0VWV4 (whole entry, looked up): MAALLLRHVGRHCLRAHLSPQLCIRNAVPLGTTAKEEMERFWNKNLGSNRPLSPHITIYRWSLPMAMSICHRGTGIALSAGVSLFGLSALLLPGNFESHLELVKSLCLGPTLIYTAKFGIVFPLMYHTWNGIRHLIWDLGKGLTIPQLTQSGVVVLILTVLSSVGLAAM
Sequence of UniProt P09690 (whole entry, looked up): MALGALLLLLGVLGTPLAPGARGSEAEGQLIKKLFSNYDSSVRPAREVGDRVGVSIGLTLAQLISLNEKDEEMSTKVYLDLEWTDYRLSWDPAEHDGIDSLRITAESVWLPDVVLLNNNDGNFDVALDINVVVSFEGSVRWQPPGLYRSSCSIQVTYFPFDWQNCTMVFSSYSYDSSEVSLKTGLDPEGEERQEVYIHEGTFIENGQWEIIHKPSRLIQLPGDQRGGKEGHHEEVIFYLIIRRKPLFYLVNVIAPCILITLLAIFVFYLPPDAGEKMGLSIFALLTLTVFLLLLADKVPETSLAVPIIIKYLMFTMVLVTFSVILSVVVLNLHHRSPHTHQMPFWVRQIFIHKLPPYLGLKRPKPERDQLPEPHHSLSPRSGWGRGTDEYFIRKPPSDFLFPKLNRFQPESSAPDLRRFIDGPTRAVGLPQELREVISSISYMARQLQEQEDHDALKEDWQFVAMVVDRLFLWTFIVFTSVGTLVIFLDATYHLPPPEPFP
Sequence of UniProt P77488 (whole entry, looked up): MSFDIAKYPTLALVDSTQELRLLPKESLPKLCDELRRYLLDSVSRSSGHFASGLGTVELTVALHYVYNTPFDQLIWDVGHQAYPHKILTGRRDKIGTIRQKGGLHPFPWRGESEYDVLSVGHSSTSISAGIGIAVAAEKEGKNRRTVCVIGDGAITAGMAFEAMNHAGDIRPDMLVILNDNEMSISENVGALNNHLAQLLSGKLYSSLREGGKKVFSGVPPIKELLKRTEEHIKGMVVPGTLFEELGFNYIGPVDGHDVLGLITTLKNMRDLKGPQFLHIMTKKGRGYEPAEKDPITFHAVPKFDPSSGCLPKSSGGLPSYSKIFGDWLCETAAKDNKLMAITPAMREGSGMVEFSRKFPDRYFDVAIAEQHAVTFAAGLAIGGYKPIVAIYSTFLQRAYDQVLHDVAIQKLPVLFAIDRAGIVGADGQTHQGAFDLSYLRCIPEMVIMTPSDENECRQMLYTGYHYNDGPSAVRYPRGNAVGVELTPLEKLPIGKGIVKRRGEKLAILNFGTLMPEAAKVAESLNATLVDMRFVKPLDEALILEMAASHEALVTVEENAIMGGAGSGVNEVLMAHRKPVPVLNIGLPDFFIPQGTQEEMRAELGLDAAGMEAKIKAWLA
Sequence of UniProt Q9BUB5 (whole entry, looked up): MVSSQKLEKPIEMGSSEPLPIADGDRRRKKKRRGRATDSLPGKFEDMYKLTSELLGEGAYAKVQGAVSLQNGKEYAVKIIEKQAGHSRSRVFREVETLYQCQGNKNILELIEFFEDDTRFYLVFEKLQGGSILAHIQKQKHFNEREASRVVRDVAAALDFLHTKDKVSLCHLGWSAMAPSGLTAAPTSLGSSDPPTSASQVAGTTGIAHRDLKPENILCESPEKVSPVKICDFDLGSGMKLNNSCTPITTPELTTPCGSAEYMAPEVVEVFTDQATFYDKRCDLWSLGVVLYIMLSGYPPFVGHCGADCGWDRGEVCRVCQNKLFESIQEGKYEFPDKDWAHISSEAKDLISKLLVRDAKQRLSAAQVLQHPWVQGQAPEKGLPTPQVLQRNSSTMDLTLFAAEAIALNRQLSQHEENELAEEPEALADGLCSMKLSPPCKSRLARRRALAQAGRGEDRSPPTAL
Sequence of UniProt P20782 (whole entry, looked up): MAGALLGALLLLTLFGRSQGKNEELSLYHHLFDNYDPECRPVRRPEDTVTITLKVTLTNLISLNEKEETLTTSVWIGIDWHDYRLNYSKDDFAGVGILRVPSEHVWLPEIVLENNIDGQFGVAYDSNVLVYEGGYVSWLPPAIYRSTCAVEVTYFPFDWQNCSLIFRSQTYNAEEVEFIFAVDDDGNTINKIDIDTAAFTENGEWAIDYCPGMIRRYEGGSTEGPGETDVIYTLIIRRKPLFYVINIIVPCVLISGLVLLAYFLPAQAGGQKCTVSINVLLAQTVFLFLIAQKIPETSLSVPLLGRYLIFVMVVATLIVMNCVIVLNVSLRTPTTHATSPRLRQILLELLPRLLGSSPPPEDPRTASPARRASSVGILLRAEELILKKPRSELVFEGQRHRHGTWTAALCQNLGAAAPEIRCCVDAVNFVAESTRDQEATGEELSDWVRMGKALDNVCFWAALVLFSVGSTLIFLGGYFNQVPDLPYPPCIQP
Sequence of UniProt P08988 (whole entry, looked up): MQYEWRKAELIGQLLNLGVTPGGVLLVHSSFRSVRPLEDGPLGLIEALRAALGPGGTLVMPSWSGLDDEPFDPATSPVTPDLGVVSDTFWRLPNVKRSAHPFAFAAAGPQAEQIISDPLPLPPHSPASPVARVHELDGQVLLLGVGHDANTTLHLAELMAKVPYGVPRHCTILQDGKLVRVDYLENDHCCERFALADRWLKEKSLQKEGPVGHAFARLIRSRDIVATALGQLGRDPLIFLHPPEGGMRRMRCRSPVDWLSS
Sequence of UniProt P04756 (whole entry, looked up): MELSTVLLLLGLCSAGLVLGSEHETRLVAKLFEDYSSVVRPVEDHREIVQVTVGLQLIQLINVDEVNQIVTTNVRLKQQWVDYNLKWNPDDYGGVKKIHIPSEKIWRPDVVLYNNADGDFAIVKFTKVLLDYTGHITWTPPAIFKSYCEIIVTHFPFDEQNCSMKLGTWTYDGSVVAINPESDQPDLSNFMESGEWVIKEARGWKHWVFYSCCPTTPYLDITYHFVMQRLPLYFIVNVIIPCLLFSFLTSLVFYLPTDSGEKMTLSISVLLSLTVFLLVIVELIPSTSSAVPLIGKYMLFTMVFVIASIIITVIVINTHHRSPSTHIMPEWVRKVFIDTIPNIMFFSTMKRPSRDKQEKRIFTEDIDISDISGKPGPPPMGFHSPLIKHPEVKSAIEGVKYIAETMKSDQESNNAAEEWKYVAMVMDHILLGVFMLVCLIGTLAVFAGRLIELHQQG
Sequence of UniProt P32246 (whole entry, looked up): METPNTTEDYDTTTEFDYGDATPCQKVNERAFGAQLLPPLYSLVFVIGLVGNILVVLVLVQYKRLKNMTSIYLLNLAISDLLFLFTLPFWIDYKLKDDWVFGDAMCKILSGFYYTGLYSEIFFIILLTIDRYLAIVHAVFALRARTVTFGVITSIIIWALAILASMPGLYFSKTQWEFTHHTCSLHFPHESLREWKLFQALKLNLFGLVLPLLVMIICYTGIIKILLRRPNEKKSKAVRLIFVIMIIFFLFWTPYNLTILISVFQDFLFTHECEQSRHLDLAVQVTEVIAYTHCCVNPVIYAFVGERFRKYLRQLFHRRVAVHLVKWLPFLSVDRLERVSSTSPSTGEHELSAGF

SMILES	target	test	test system	setting	scale	endpoint	result
COC(=O)[C@@]1(O)C[C@H]2O[C@]1(C)n1c3ccccc3c3c4c(c5c6ccccc6n2c5c31)C(=O)NC4	MAPK3 (Homo sapiens, UniProt P27361)	ADP-Glo	–	17.2 µM, added: MBP substrate	–	kinase activity	117% and 99% and 96.1%
CN1CCN(c2cc(-c3ccncc3)c(-c3ccc4ccccc4c3)nn2)CC1	P2Y purinoceptor 2 (P2RY2, Homo sapiens, UniProt P41231)	agonist, FLIPR	–	12.5 µM	–	activation	-13.2%
COc1ccc(N2C(=O)N(c3c(C)cccc3Cl)Cc3cnc(Nc4ccc(C5CCN(C)CC5)cc4OC)nc32)nc1	MKNK1 (Homo sapiens, UniProt Q9BUB5)	kinase activity, inhibitor	–	0.5 µM, MNK1	–	inhibition	1.7%
CC[N+]1(CC)CCN(c2cccc(C)c2)CC1	Nicotinic acetylcholine receptor alpha1/beta1/epsilon/delta (Mus musculus, UniProt P02716+P04756+P09690+P20782)	ion current, inhibitor, two-electrode voltage clamp	Xenopus oocytes	30 µM, after co-application, unit not given, added: ACh 30 µM	relative to: ACh alone	ACh response	0.473 ± 0.134
C=C(CN(C(=O)c1c(C(F)F)nn(C)c1F)C1CC1)c1ccc(Cl)cc1Cl	SDHD/SDHC/SDHB (Sus scrofa, UniProt A5GZW8+D0VWV4+Q007T0)	enzyme activity, inhibitor, DCIP reduction	pig	0.2 µM, added: DCIP 10 µM	–	reaction velocity	0.00257 µM/s and 0.00292 µM/s and 0.0027 µM/s
Clc1ccc(COc2cccc(CNCc3cccnc3)c2)cc1	Aminoglycoside N(3)-acetyltransferase IV (aacC4, Salmonella sp, UniProt P08988)	neomycin acetylation, inhibitor	–	added: neomycin	–	highest concentration without inhibition	> 200 µM
CC(C)(O/N=C(\C(=O)N[C@@H]1C(=O)N2C(C(=O)[O-])=C(C[N+]3(CCNC(=O)c4ccc(O)c(O)c4Cl)CCCC3)CS[C@H]12)c1csc(N)n1)C(=O)O	Metallo-beta-lactamase type 2 (Serratia marcescens, UniProt P52699)	substrate, stopped-flow fluorescence	–	pH 7.5, 10 °C	relative to: NDM-1	Trp fluorescence recovery time	30 fold
O=C(O)C(F)(F)C(F)(F)C(F)(F)C(F)(F)C(F)(F)C(F)(F)C(F)(F)C(F)(F)C(F)(F)C(F)(F)C(F)(F)F	Albumin (ALB, Homo sapiens, UniProt P02768)	–	–	ligand to HSA 1:1	relative to: HSA alone	ΔTm first transition	2.9 °C
[2H]c1c([2H])c([C@]2([2H])CCCN2C(=O)C(C)(C)Oc2ccc3cn[nH]c3c2)c([2H])c([2H])c1C([2H])([2H])[2H]	DDR2 (Homo sapiens, UniProt Q16832)	KINOMEscan	–	1 µM	relative to: DMSO control	remaining binding	83%
CC[C@H](CO)Nc1nc(NCc2ccc(-c3ccccn3)cc2)c2ncn(C(C)C)c2n1	CSNK1D (Homo sapiens, UniProt P48730)	KINOMEscan competition binding	–	10 µM, primary screen	direction not given	binding score	3.2
CN(C(=O)n1cnc(-c2ccc[n+]([O-])c2)c1)C1CCCCC1	CCR1 (Homo sapiens, UniProt P32246)	radioligand binding, inhibitor	–	50 µM	–	inhibition	0%
C[C@H]1CN(c2n[nH]c3nc(N[C@H]4CC[C@H](NS(=O)(=O)CCC(F)(F)F)CC4)ncc23)CCO1	PRKAR2B (Homo sapiens, UniProt P31323)	inhibitor, Kinobeads competition profiling	–	0.16 µM	relative to: vehicle	relative abundance	1.02
CC(=O)P(=O)(O)OCCc1cn([C@H](Cc2ccccc2)C(=O)O)nn1	dxs (Escherichia coli, UniProt P77488)	–	–	23 °C, 250 µM D-GAP, added: 100 µM pyruvate	–	forward isomerization rate k1	1.1 min⁻¹
O=C(c1ccc(Cl)cc1)N1CCN2C(=O)N(OC(=O)N3CCOc4ccccc43)C(=O)C2C1 (stereo not drawn)	PREP (Homo sapiens, UniProt P48147)	MS-based ABPP	SW-620 conditioned medium	10 µM, 1 h, 37 °C	relative to: compound over DMSO, lower = more inhibition	median protein ratio	1.01
Nc1ncc(-c2nc(N3CCOCC3)nc(N3CCOCC3)n2)c(C(F)F)n1	SBK1 (Homo sapiens, UniProt Q52WX2)	KINOMEscan	–	10 µM	–	remaining binding	60%
